{"data": "Experimental data from different studies", "note": "Every numbered part comes from another study and shows a few of its results, in no order. Changes are numbered by the printed parent chain."}
{"data": "Study 1", "target": "Hepatocyte nuclear factor 3-alpha (Foxa1, Mus musculus, UniProt P35582, residues 1-468, full length assumed)", "method": "EMSA with sequencing", "molecule type": "double-stranded DNA, one strand shown", "medium": "in vitro", "concentration": "10 and 20 nM", "notes": "whole designed probe, mean of two concentrations, ends assumed", "baseline": "negative control set to 0", "reading": "higher = stronger binding", "Construct (chain)": "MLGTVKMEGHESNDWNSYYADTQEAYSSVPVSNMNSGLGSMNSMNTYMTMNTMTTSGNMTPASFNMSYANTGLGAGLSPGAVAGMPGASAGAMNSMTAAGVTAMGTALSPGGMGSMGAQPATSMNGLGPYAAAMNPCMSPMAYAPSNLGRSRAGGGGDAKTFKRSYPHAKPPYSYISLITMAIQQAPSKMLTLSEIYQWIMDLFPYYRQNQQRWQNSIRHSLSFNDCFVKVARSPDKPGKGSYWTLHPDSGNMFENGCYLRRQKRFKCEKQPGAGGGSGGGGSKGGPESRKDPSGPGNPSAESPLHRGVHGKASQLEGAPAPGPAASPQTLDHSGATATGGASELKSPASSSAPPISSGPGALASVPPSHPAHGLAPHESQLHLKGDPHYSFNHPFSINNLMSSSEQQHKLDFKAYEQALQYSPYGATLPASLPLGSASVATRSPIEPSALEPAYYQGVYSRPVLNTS"}
{"Sequence": "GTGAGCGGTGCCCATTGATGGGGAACCCCTCATCCTGGGTGTCGGGGTGGGAGGTGTTCTCATCATGAATGGGAGGCGTACCCAGATCCAGCTCTGCCTTTTTTTAACCAAACCACATTTGTTTACACTCGTGACTCACCAGCTGTTAATCGACATAGCAAGATATGATACATGCCAGGAGAGAAAAAGAAAGTGCTGATGGAAAAATAATCTCATTAGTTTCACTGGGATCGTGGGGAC", "normalised bound fraction [ratio]": 0.258}
{"Sequence": "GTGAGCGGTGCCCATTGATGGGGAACAGTGAGAACTTTACTTTCAAAATAAGCTGATGGTGTTATATACATCATAAATTTAATTGCGCCCACTAAGCAAATAGAGCCAATATGTTTTATGTTTACTTTGATTCTAATCAAAACAACTCCTAGCCAGCTTGTCTTAGATAATCTAAATAATTTCATGTTAAAAAACATTGAGGCAGTATATATATATATATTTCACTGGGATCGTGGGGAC", "normalised bound fraction [ratio]": 0.49}
{"Sequence": "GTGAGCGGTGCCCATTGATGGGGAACTCTCTGCATTCCAAGCCGTTGCACCTGAACTCCCAACAATAACAGGGCGCTCTGAGACCTACCAGATGTACACAATGAATATCTTTATTTCCTAAATTATTTTTAGGTTTATGGGATTGTCCTGCTCCCTTTGAAGAGCAGGGATCATTATCCCCATTTTACAGATGGGGAAACAGAGACCTGGAGAAACATGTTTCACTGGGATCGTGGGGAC", "normalised bound fraction [ratio]": 0.327}
{"Sequence": "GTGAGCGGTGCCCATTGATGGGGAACACCCGCGTGCAAGGGGACCGAGCCCCGGGAAGGGGAAGAACTTGTAATCGCTTGCAGCGGGACAATGTCGACTTTTGAACCTCTAACCACTAAGCAATCTACCCATGTGCTCTTGCTCCACTGTCCAAACAGGGTTTATTGACAGGCGTTTCACGGCAACGCATAGCAACCCCGGCGGCTAGGGGGCGGGCCTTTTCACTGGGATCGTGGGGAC", "normalised bound fraction [ratio]": 0.0381}
{"Sequence": "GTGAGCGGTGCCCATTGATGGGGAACGGTTAAAAAAACATACAAGGATCCAATCCCCCCGTTGGAGACACACAGAGCAACAGTAGGAAGGATACATTTCCAGCAAGCTGTGACTCTTTAAGTAATTTCGTAGGAGGAAGCAAGTGCAGATTAAAGTACAGTAACTGTGAGGCATATGACTGCAGTCATGTTTATGAGTGACTTATAAAGAGAGATTTCATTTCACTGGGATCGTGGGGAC", "normalised bound fraction [ratio]": 0.00112}
{"Sequence": "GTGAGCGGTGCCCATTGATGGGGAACGGGAATTTTTATATAATACCAACTAATGAGTGTAAAACAAAGAAACAAAAAGAAACCAGTCCACAGAAACCAGAGTTGAGGCATCTCACTCAGTGTTGACTCTCAAGGTGATTACCCTGTGAAACTATGTACTGTTCTTGCATAACAATTTTTGGAATCTTTTGCTTTGAAATGCCTTCAGAATCAGTTCATGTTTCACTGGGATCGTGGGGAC", "normalised bound fraction [ratio]": 0.06}
{"Sequence": "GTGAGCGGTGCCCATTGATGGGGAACTGAAGCCTAGTGTTCTCTCTCAACCCCAGCTCAAACAGATATTTTGAAAAGGAAACAGAAACTCCACACACTTCCCAGATTGCCTATTTCCAAGATTACATTTCTCTAACAGCTAACACTATGTTTGGTTAGTTTAACTAAGTTATCCTGCTCACTTAAAATTCTATTTTTTTCTGGTTATATCTGACAATAGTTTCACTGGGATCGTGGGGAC", "normalised bound fraction [ratio]": 0.0718}
{"Sequence": "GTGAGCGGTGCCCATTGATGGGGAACATCTTCCCCCTCTTCCTTGCCCCACCAGCTCACCTTCCCGGGTTATTTGCAGATAGGAAAATAAATAAAGCCGGCATTCGTTAACCCTCTTCACGCGCATACTGCCAGAGCAAACAGATCTAACATGGTCCTGATGAATCATGAGGCTCCGGGAGAGCAAAGCACCGTGTCAGGGCCATGATCCGGGGTGGCCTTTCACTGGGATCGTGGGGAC", "normalised bound fraction [ratio]": 0.382}
{"data": "Study 2", "target": "ABI1, truncated, D143A, DHFR fusion (Arabidopsis thaliana)", "method": "DHFR PCA, deep sequencing", "medium": "yeast", "notes": "methotrexate growth selection, single substitutions", "added": "(+)-ABA 0.0091 µM", "baseline": "wild-type fitted maximum", "reading": "higher = stronger binding", "starting sequence": "PYL1, truncated, DHFR fusion (Arabidopsis thaliana); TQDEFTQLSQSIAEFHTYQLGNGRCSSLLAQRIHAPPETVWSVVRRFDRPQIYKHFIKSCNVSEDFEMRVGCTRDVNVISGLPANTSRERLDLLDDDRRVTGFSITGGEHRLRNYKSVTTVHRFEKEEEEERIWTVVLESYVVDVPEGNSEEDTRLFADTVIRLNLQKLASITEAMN"}
{"Change": "I79P", "relative binding score [%]": -0.279}
{"Change": "V62M", "relative binding score [%]": 3}
{"Change": "S150P", "relative binding score [%]": 4.05}
{"Change": "K126Y", "relative binding score [%]": 20.6}
{"Change": "S80A", "relative binding score [%]": 12.8}
{"Change": "Y141Q", "relative binding score [%]": -4.37}
{"Change": "G71C", "relative binding score [%]": 0.0122}
{"Change": "E152N", "relative binding score [%]": 10.5}
{"data": "Study 3", "target": "RNA binding protein fox-1 homolog 2, RRM domain, GST-SBP tag (RBFOX2, Homo sapiens, UniProt O43251-10, residues 100-194)", "method": "RNA Bind-n-Seq", "molecule type": "RNA", "medium": "in vitro", "concentration": "365 nM", "notes": "natural RNA segment, single round, ends assumed", "baseline": "no-protein control", "reading": "higher = stronger binding", "Target sequence (chain)": "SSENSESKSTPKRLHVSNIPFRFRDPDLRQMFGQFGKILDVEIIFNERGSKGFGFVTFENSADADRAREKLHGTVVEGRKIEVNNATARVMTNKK"}
{"Sequence": "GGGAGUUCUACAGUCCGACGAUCGAGAUUUGUCUUUUUCUCCUUUGGCUGUGUGUUGUCCAGGGAUAUAUAUUUCCUAAAAUCUUUUUAAAGUGAAUUUAUAUGUGCACAUAUGUGUGUGUAGGGGGAGGAUAUGGAAUUCUCGGGUGCCAA", "RBNS enrichment (R)": 1.11}
{"Sequence": "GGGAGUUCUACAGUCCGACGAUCCUGCCUGGGACGCAUGGCUGAGUAACAGAGGGGACCACGCAGCCACCGACAGCCCUUCUCUGCGGUUGUCUGACUGGACACACUUCCUGAAAUCAGGCCGUUUCCCUCCGUGGAAUUCUCGGGUGCCAA", "RBNS enrichment (R)": 0.552}
{"Sequence": "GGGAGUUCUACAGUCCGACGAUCUGCCAGACCAAUGAUACCCAGAGCUACCUGCCGCCAACUUGUUGAGAUGUGUGUUUGACUGUGAGAGAGUGUGUGUUUGUGUGUGUGUUUUGCCAUGAACUGUGGCCCCAUGGAAUUCUCGGGUGCCAA", "RBNS enrichment (R)": 1.71}
{"Sequence": "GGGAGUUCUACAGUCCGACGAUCAGCACCGACUUUUUGAAAAUCAGAUAAACAUGGUUAUUGACAUUUUUUGAGUCAGAGUAGGGCUGGAGAACACUUCAUAUUUGAUGCCUUUUAGCUAAAGACAUUCAUUAUGGAAUUCUCGGGUGCCAA", "RBNS enrichment (R)": 0.307}
{"Sequence": "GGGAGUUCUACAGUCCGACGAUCCUCUCUCCUCCCUUCUGCCCUCCUUGCAUUGUGAUGAUCUAGUGGGCAUGUCUGUCACCUGGACAAUUGCCUCUUCUGACUAUAACCUCUUAAUAGUUGUGUAUAAUGAAUGGAAUUCUCGGGUGCCAA", "RBNS enrichment (R)": 0.661}
{"Sequence": "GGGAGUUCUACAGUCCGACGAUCUAGCUGAUUUCCAUCCAUUGGCUAAUGGCCAACUUCAUGUCCUUGGGUAACUUGCCACCACCCUGGAUCCAAGUUCCCAUGGAGGGGAAAAUUAGGACAUUUAGUAGUGAUGGAAUUCUCGGGUGCCAA", "RBNS enrichment (R)": 0.487}
{"Sequence": "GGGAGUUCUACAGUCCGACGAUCAUCAUUGCAUACAACAGCACAGCAAAUUGCGCCAAGUCAGUGUGUGAAUGGGAAUUAGCAAUGCACGCUUGCAGGCUCUUUUUCCAGGAACCAGGCUGUAACAUUGACCGUGGAAUUCUCGGGUGCCAA", "RBNS enrichment (R)": 1.1}
{"Sequence": "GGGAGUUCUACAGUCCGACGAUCUUUAGGUGGAACUAUUUUCAGUGAAAUUUUCAAAAGGUAUUAACAGCACAGACAGUGUUUUUGACCCUGACAGCCCUGGCUUAGCUUUUGGCUUCCAUGAAUCAGUACUGUGGAAUUCUCGGGUGCCAA", "RBNS enrichment (R)": 0.336}
{"data": "Other studies, line by line"}
{"SMILES": "CC(C)n1cnc(-c2ccc(F)cc2)c1-c1ncc(C(=O)Nc2ccc(N3CCN(C)CC3)cc2)[nH]1", "assay": "phase 2a trial", "test system": "idiopathic pulmonary fibrosis patients", "conditions": "dose not given, maximum grade 1, arms pooled", "measurement": "patients with benign prostatic hyperplasia", "result": "1%"}
{"note": "Some of these lines once more (study 3):"}
{"Sequence": "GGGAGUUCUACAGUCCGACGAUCUGCCAGACCAAUGAUACCCAGAGCUACCUGCCGCCAACUUGUUGAGAUGUGUGUUUGACUGUGAGAGAGUGUGUGUUUGUGUGUGUGUUUUGCCAUGAACUGUGGCCCCAUGGAAUUCUCGGGUGCCAA", "RBNS enrichment (R)": 1.71}
{"Sequence": "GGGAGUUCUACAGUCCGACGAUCCUGCCUGGGACGCAUGGCUGAGUAACAGAGGGGACCACGCAGCCACCGACAGCCCUUCUCUGCGGUUGUCUGACUGGACACACUUCCUGAAAUCAGGCCGUUUCCCUCCGUGGAAUUCUCGGGUGCCAA", "RBNS enrichment (R)": 0.552}
{"Sequence": "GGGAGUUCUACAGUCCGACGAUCUUUAGGUGGAACUAUUUUCAGUGAAAUUUUCAAAAGGUAUUAACAGCACAGACAGUGUUUUUGACCCUGACAGCCCUGGCUUAGCUUUUGGCUUCCAUGAAUCAGUACUGUGGAAUUCUCGGGUGCCAA", "RBNS enrichment (R)": 0.336}
{"Sequence": "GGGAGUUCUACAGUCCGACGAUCAGCACCGACUUUUUGAAAAUCAGAUAAACAUGGUUAUUGACAUUUUUUGAGUCAGAGUAGGGCUGGAGAACACUUCAUAUUUGAUGCCUUUUAGCUAAAGACAUUCAUUAUGGAAUUCUCGGGUGCCAA", "RBNS enrichment (R)": 0.307}
